Results pooled from the literature.
Compare with care: the assays were run in different laboratories.

Structure (SMILES)	organism	assay	test system	setting	MIC
CC[C@H](C)[C@H](NC(=O)[C@H](CCCNC(=N)N)NC(=O)[C@H](Cc1c[nH]c2ccccc12)NC(=O)[C@H](CCCNC(=N)N)NC(=O)[C@H](Cc1c[nH]c2ccccc12)NC(=O)[C@H](Cc1c[nH]c2ccccc12)NC(=O)[C@H](Cc1c[nH]c2ccccc12)NC(=O)[C@H](CCCNC(=N)N)NC(=O)[C@H](Cc1c[nH]c2ccccc12)NC(=O)[C@@H](N)CCCNC(=N)N)C(N)=O	Candida albicans	broth microdilution	14936, RPMI 1640-MOPS	48 h, 30 °C	8 µM
O=C(CO/N=c1\cc2n(-c3ccc(Cl)cc3)c3ccccc3nc-2cc1Nc1ccc(Cl)cc1)NCc1ccc(C(F)(F)F)cc1	Neisseria gonorrhoeae	bacterial growth	700825, streptomycin-resistant	24 h	> 30 µM
N=C(N)NCCC[C@H](NC(=O)CN)C(=O)N[C@@H](Cc1c[nH]c2ccccc12)C(=O)N[C@@H](CCCNC(=N)N)C(=O)N[C@@H](Cc1c[nH]c2ccccc12)C(=O)N[C@@H](Cc1c[nH]c2ccccc12)C(=O)N[C@@H](Cc1c[nH]c2ccccc12)C(=O)N[C@@H](CCCNC(=N)N)C(=O)N[C@@H](Cc1c[nH]c2ccccc12)C(=O)N[C@@H](CCCNC(=N)N)C(=O)N[C@@H](Cc1c[nH]c2ccccc12)C(N)=O	Candida albicans	broth microdilution	CGMCC 2.209, RPMI 1640-MOPS	48 h, 30 °C, with: NaCl 150 mM	32 µM
CC(C)C1NC(=O)C(C(=O)NC(C(=O)NC2C(=O)N3C2SC(C)(C)C3C(=O)O)c2ccccc2)=C1O (stereo not shown)	Escherichia coli	broth microdilution	isolate IU, CTX-M-14, TEM-1	no clavulanic acid	> 200 µg/mL
O=C(CO/N=c1\cc2n(-c3ccc(Cl)cc3)c3ccccc3nc-2cc1Nc1ccc(Cl)cc1)NCc1ccc2c(c1)CCO2	Neisseria gonorrhoeae	bacterial growth	1130991, multidrug-resistant	24 h	> 30 µM
N=C(N)NCCC[C@H](NC(=O)[C@H](Cc1c[nH]c2ccccc12)NC(=O)[C@H](CCCNC(=N)N)NC(=O)[C@H](Cc1c[nH]c2ccccc12)NC(=O)[C@H](Cc1c[nH]c2ccccc12)NC(=O)[C@H](Cc1c[nH]c2ccccc12)NC(=O)[C@H](CCCNC(=N)N)NC(=O)[C@H](Cc1c[nH]c2ccccc12)NC(=O)[C@@H](N)CCCNC(=N)N)C(=O)N[C@@H](Cc1c[nH]c2ccccc12)C(N)=O	Candida albicans	broth microdilution	CGMCC 2.209, RPMI 1640-MOPS	48 h, 30 °C, with: FeCl3 4 µM	16 µM
CC(C)C[C@H](NC(=O)[C@H](CCCCN)NC(=O)[C@H](CO)NC(=O)[C@H](CC(C)C)NC(=O)[C@H](CC(C)C)NC(=O)CNC(=O)[C@H](CC(C)C)NC(=O)[C@H](CCCCN)NC(=O)[C@H](CC(C)C)NC(=O)[C@H](CC(C)C)NC(=O)[C@H](CC(C)C)NC(=O)CNC(=O)[C@H](CO)NC(=O)[C@H](Cc1c[nH]c2ccccc12)NC(=O)[C@@H](N)CCCCN)C(N)=O	Candida tropicalis	broth microdilution	ATCC 13803	44 h, 37 °C	> 8 µM
CC1(C)SC2C(NC(=O)C(NC(=O)C3=C(O)C4(CC4)NC3=O)c3ccccc3)C(=O)N2C1C(=O)O (stereo not shown)	Escherichia coli	broth microdilution	Keio mutant JW0587-1	18 h, enterobactin-related gene	25 µg/mL
CC[C@H](C)[C@H](NC(=O)[C@H](CCCNC(=N)N)NC(=O)[C@H](Cc1c[nH]c2ccccc12)NC(=O)[C@H](CCCNC(=N)N)NC(=O)[C@H](Cc1c[nH]c2ccccc12)NC(=O)[C@H](Cc1c[nH]c2ccccc12)NC(=O)[C@H](Cc1c[nH]c2ccccc12)NC(=O)[C@H](CCCNC(=N)N)NC(=O)[C@H](Cc1c[nH]c2ccccc12)NC(=O)[C@H](CCCNC(=N)N)NC(=O)CN)C(N)=O	Candida albicans	broth microdilution	CGMCC 2.209, RPMI 1640-MOPS	48 h, 30 °C, with: NaCl 150 mM	32 µM
N=C(N)c1cccc(OCc2ccc(COc3cccc(C(=N)N)c3)cc2)c1	Escherichia coli	–	BW25113 mcr-1	compound alone	> 200 µg/mL
C[C@H](NC(=O)CO/N=c1\cc2n(-c3ccc(Cl)cc3)c3ccccc3nc-2cc1Nc1ccc(Cl)cc1)C(=O)O	Neisseria gonorrhoeae	bacterial growth	700825, streptomycin-resistant	24 h	7.5 µM
CC(C)(C)Oc1ccc(CC2NC(=O)C(C(=O)NC(C(=O)NC3C(=O)N4C3SC(C)(C)C4C(=O)O)c3ccccc3)=C2O)cc1 (stereo not shown)	Escherichia coli	broth microdilution	Keio mutant JW5086-3	18 h, ferrienterobactin permease gene	25 µg/mL
CS(=O)(=O)Nc1ncn(-c2cc(F)c(COc3ccc(OS(=O)(=O)F)cc3)c(F)c2)n1	Mycobacterium marinum	–	–	–	3.12 µM
N=C(N)NCCC[C@H](NC(=O)[C@H](Cc1c[nH]c2ccccc12)NC(=O)[C@H](CCCNC(=N)N)NC(=O)[C@H](Cc1c[nH]c2ccccc12)NC(=O)[C@H](Cc1c[nH]c2ccccc12)NC(=O)[C@H](Cc1c[nH]c2ccccc12)NC(=O)[C@H](CCCNC(=N)N)NC(=O)[C@H](Cc1c[nH]c2ccccc12)NC(=O)[C@H](CCCNC(=N)N)NC(=O)CN)C(N)=O	Candida albicans	broth microdilution	14936, RPMI 1640-MOPS	48 h, 30 °C	4 µM
Cc1c2ccncc2c(C)c2c1[nH]c1ccccc12	Candidozyma auris	inhibitor	279	24 h	128 µg/mL
CC1NC(=O)C(C(=O)NC(C(=O)NC2C(=O)N3C2SC(C)(C)C3C(=O)O)c2ccccc2)=C1O (stereo not shown)	Escherichia coli	broth microdilution	Keio mutant JW0587-1	18 h, enterobactin-related gene	100 µg/mL

Some of these lines once more:
Structure (SMILES)	organism	assay	test system	setting	MIC
CC[C@H](C)[C@H](NC(=O)[C@H](CCCNC(=N)N)NC(=O)[C@H](Cc1c[nH]c2ccccc12)NC(=O)[C@H](CCCNC(=N)N)NC(=O)[C@H](Cc1c[nH]c2ccccc12)NC(=O)[C@H](Cc1c[nH]c2ccccc12)NC(=O)[C@H](Cc1c[nH]c2ccccc12)NC(=O)[C@H](CCCNC(=N)N)NC(=O)[C@H](Cc1c[nH]c2ccccc12)NC(=O)[C@@H](N)CCCNC(=N)N)C(N)=O	Candida albicans	broth microdilution	14936, RPMI 1640-MOPS	48 h, 30 °C	8 µM
Cc1c2ccncc2c(C)c2c1[nH]c1ccccc12	Candidozyma auris	inhibitor	279	24 h	128 µg/mL
